# Measurements of several laboratories.
# Parts stem from different laboratories: compare values within a part only.

# Block 1
# Target: Runt-related transcription factor 3, Runt domain (RUNX3, Homo sapiens, UniProt Q13761, residues 53-186)
# UniProt Q13761, sequence (53-186, looked up): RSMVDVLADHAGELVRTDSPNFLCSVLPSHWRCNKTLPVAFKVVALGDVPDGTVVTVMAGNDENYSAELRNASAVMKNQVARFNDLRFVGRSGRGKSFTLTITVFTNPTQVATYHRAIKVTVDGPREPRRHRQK
# Method: protein-binding microarray
# Form: hairpin DNA
# Medium: in vitro
# Concentration: not given
# Setting: whole hairpin DNA, median over replicate spots
# Reference: not given
# Direction: higher = stronger binding
Strand,median fluorescence
GAGGCCTCGTGTGGTTGGCCTCCTGGCCAACCACACGAGGCCTCACACTC,4970 a.u.
GAGGCCTGTTGTGGTGGGCCTCCTGGCCCACCACAACAGGCCTCACACTC,5070 a.u.
GAGGCCTGTTGCGGTCGGCCTCCTGGCCGACCGCAACAGGCCTCACACTC,9190 a.u.
CTCAGTGCTGTGGGCTGGACTCCTGTCCAGCCCACAGCACTGAGACACTC,4370 a.u.
GAGGCCAAACCGCAACAGCCTCCTGGCTGTTGCGGTTTGGCCTCACACTC,12800 a.u.
CTCAGTTCTGTGGCGTGGACTCCTGTCCACGCCACAGAACTGAGACACTC (5mC at 14 30),3850 a.u.
GAGGCCTGTTGCGGCGGGCCTCCTGGCCCGCCGCAACAGGCCTCACACTC (5mC at 15 29),7250 a.u.
GAGGCCTGTTGTGGTTCGCCTCCTGGCGAACCACAACAGGCCTCACACTC (5mC at 17),4820 a.u.
GAGGCCTGTCGCGTTTGGCCTCCTGGCCAAACGCGACAGGCCTCACACTC,5020 a.u.
GAGGCCTGTTCCGGTTGGCCTCCTGGCCAACCGGAACAGGCCTCACACTC (5mC at 11),4830 a.u.
GAGGCCTGTCGCGCGTGGCCTCCTGGCCACGCGCGACAGGCCTCACACTC (5mC at 30),5570 a.u.
CTCAGTGCTGTGGGCTGGACTCCTGTCCAGCCCACAGCACTGAGACACTC (5mC at 38),4250 a.u.
GAGGCCTGTCGCGGTTGGCCTCCTGGCCAACCGCGACAGGCCTCACACTC (5mC at 31),5200 a.u.

# Block 2
# Target: RNA binding protein fox-1 homolog 2, RRM domain, GST-SBP tag (RBFOX2, Homo sapiens, UniProt O43251-10, residues 100-194)
# Method: RNA Bind-n-Seq
# Form: RNA
# Medium: in vitro
# Concentration: 365 nM
# Setting: natural RNA segment, single round, ends assumed
# Reference: no-protein control
# Direction: higher = stronger binding
# Constant ends, left off below: GGGAGUUCUACAGUCCGACGAUC … UGGAAUUCUCGGGUGCCAA
# Target sequence (chain): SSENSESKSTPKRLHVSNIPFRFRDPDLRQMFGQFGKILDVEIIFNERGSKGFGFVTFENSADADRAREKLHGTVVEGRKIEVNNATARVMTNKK
Strand,RBNS enrichment (R)
CCGGAGGCAGCUUUUUUGAGCACGAGGGUCGCCCUUUGUGUGAAAACCAUUUCCAUGCUCAGCGUGGUUCGCUGUGUGCCACGUGUGGUCUCCCAGUGACCGGCCGCUGU,0.266
UGUAAUGGAGUGAGCGUAGCAGCUCAGCUCUUUGGAUCAGUCUUUGUGAUUUCAUAGCGAGUUUUCUGACCAGCUUUUGCGGAGAUUUUGAACAGAACUGCUAUUUCCUC,0.341
AGCCAGCCUGUUUGGUCUGCUUCCCCUUUGCUGGACACCUGCGUCCCUCUCUUGUUUCCUCUCCUCUUCUUAUGCCCCCUCCUGGGGAGGAGGCUACUGGAUGUAAGCUG,0.456
GAGGACUUUCUUAAAGCUACUGGGCUGGAGGUCCUUUCCCACUCCUUUGUCCUUUGCUUGGCCUAAGAUGCCAAUGCCCCGCCAUGUUUUCUCCAGAGAGUCCUUGGGGU,0.746
CUGGCCUCUGGGGUCAUACUCACUUCUUUAGCCAGCCCCAUCCCCUCCACCCCACACCUGAGUUCUUGCCUCCUCCUUUUGGGGACACCCAAAACACUGCUUGUGAGAAG,0.706
AGAGAUGUUUUAUAGUUACAUGAGCAAAAGCUGUUGCCCCAAAGUGAUGGCCCUGGAGGCGGGGCUGAGGAACAGGGAAAUGCCGCUGUGAAGUCUUAAAGCACUUCUGC,0.49
CCAGUGUCAUUCAGUAUUUUGUUGAGAAGACAUUUUUAUCCUAAUGAUUUGAAAACUAAGUUCAUGUUAUAGAGUGGUUUACUGUACUAUACUUUCUCUUUUUUAUAUGA,0.709
CUUAAACUUUUUAAUAUGUUGGGAUUUGAUUUUUCUAUUUAAUGGCUCUGAGUGUCAUCUAUCCAUUGCUGAGGUGGUCUCUAUAGCCUGCUCAAAGUCAAAUACAAACC,0.426

# Block 3
# Target: Interferon regulatory factor 7, full length, phosphomimetic (IRF7, Homo sapiens, UniProt Q92985, residues 1-503, S471D/S472D/S475D/S476D/S477D/S483D/S484D/S487D)
# Method: protein-binding microarray
# Form: double-stranded DNA, one strand shown
# Medium: in vitro
# Concentration: 2200 nM top
# Setting: 60-bp whole probe
# Together with: salmon DNA 0.4 mg/ml
# Reference: random background probes
# Direction: higher = stronger binding
# Constant ends, left off below: GCCTAGCAC … GTCTTGATTCGCTTGACGCTGCTG
# Residues (chain): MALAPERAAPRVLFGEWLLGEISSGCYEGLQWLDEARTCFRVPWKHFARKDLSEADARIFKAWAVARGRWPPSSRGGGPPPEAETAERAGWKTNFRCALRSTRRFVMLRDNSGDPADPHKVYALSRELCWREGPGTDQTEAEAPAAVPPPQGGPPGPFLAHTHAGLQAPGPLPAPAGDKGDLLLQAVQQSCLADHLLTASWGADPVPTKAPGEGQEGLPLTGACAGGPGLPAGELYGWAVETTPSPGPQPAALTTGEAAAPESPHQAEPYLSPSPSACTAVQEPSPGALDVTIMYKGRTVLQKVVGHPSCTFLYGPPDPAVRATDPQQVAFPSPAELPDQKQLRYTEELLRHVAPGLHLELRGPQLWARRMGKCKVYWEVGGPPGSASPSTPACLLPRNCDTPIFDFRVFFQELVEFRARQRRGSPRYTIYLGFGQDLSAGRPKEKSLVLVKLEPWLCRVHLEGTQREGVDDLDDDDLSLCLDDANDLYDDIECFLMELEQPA
Strand,fitted relative affinity
GACGGACTGGGGCTTCGGGACGTGCTA,-0.668 z-score
GAAGAACTGAGTATCGAGACGTGCTAG,-0.582 z-score
TCATATTTAAGCTCCTATACTGTGCTA,0.698 z-score
TTAGGTTTCGGTAGCGGTTAGTGCTAG,3.08 z-score
GACGGTATAGACTATCGGGACGTGCTA,-0.0406 z-score
CTCAAAGTCTTTTATGGTATTGTGCTA,0.00937 z-score
CAGATTTGGCATATCTATTTGTGCTAG,0.522 z-score
TTAGGACTGCATTTCCTTTAGTGCTAG,0.562 z-score
TTAGGTCTCAGTTTCGGTTAGTGCTAG,7.13 z-score
TTACATTTCGGGTATCGATTAGTGCTA,3.47 z-score
GACGTACTGGGACTGGGGACGTGCTAG,-0.39 z-score
GACGAACTGAGTCTCGCGACGTGCTAG,-0.0511 z-score
TTAGGACCGGGTTTCGGTTAGTGCTAG,3.58 z-score
ATTAGAGGATAACTTACAGAGTGCTAG,-0.626 z-score
AACGAACTGAGACTGGAGACGTGCTAG,-0.344 z-score
TTAGGGTCCCTTTTCCTTTAGTGCTAG,1.63 z-score
CATATTCTCTTCTTGCATCTGTGCTAG,2.47 z-score
TGCCTTTTGCTTTACTGATGGTGCTAG,2.31 z-score
GACGGTCTCCATATCCTGACGTGCTAG,0.949 z-score

# Block 4
# Target: Ras GTPase-activating protein-binding protein 1, C-terminal RGG region (G3BP1, Homo sapiens, UniProt Q13283)
# UniProt Q13283, sequence (whole entry, looked up): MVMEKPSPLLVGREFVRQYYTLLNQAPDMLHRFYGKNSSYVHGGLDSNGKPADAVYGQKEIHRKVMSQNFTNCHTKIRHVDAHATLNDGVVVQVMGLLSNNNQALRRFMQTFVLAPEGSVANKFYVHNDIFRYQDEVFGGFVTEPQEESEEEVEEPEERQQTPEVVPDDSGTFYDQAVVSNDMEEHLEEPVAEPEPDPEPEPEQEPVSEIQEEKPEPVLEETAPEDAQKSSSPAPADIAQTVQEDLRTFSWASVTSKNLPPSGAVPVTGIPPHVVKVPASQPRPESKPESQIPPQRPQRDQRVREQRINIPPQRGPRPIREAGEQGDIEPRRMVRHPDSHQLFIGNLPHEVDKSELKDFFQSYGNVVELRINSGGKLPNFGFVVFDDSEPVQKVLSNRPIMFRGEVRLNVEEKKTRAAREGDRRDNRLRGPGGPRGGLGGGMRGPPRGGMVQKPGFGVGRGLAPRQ
# Method: RNA Bind-n-Seq
# Form: RNA
# Medium: in vitro
# Concentration: 1 µM
# Setting: whole 134-nt RNA, ends assumed
# Together with: 150 mM KCl
# Reference: input library
# Direction: higher = stronger binding
# Constant ends, left off below: GGGAGUUCUACAGUCCGACGAUC … UGGAAUUCUCGGGUGUCAAGG
Strand,log2 enrichment
CAAGUCCUGUGCUACACAUCGUAUGUACCGAAUCGGUUUGGGGUUUGGGGUUUGGAAAGUAUUAUGUUACGCCGUUCGGAUCUGCACUUC,-0.741
CACAGACAACACGCACCCACACAGACACAGAGGGAAGGGGUUGGUAUGGGGACAGGGUGCACAGCAGGGCGGGGUAGGACCCCAGCCCCU,-0.548
UCCUGUGCUACACAUCGUAUGUACCGAAUCGGGGAGGGGUUUUUGGGGUUUUUUUGGGGAAAGUAUUAUGUUACGCCGUUCGGAUCUGCA,1.28
UCCUGUGCUACACAUCGUAUGUACCGAAUCGGGCCCCCCGGGCCCCCCGGGGCCCCCCGGAAAGUAUUAUGUUACGCCGUUCGGAUCUGC,-1.04
UUGACAUGAAGACAAUGGAGACUGCAGAGAAACUGGCUAGAUUUGUUGCUCAGGUGGGACCAGAGAUCGAACAAUUCAGCAUAGAAAACA,-1.44
CACAGACAGCACGCACCCACACAGACACAGAGGGAAGGGGUUGGGAUGGGGACAGGGUGCACAGCAGGGCGGGGUAGGACCCCAGCCCCU,-0.47
CCUGUGCUACACAUCGUAUGUACCGAAUCGGGGAAAAAAAGGAAAAAAAGGAAAAAAAGGAAAGUAUUAUGUUACGCCGUUCGGAUCUGC,-1.72
ACCAUGCAGGUGGGCAUCUUUGGGAAGUGGGGCAAGGGGGGCAUAGGGAGGGGGGUAACACUUUGGGAACAGGUGGUCCCAGGUCGUUUC,2.14
ACCAUGCAGGUGGGCAUCUUUGGGAAGUGGGGCAAGGGGGGGAAAAGGAGGGGGGUAACACUUUGGGAACAGGUGGUCCCAGGUCGUUUC,-0.361

# Repeated from above (block 4):
Strand,log2 enrichment
CACAGACAACACGCACCCACACAGACACAGAGGGAAGGGGUUGGUAUGGGGACAGGGUGCACAGCAGGGCGGGGUAGGACCCCAGCCCCU,-0.548
UCCUGUGCUACACAUCGUAUGUACCGAAUCGGGGAGGGGUUUUUGGGGUUUUUUUGGGGAAAGUAUUAUGUUACGCCGUUCGGAUCUGCA,1.28
UCCUGUGCUACACAUCGUAUGUACCGAAUCGGGCCCCCCGGGCCCCCCGGGGCCCCCCGGAAAGUAUUAUGUUACGCCGUUCGGAUCUGC,-1.04
UUGACAUGAAGACAAUGGAGACUGCAGAGAAACUGGCUAGAUUUGUUGCUCAGGUGGGACCAGAGAUCGAACAAUUCAGCAUAGAAAACA,-1.44
